Results collected from several papers.
A part holds a random share of what one study measured.

Sample 1
Target: Histone acetyltransferase KAT6A, winged helix 1, GST fusion (KAT6A, Homo sapiens, UniProt Q92794, residues 1-85)
Technique: protein binding microarray
Molecule type: double-stranded DNA, one strand shown
Medium: in vitro
Concentration: not given
Notes: 8-mer, flanks averaged, mean of 2 arrays, mostly near background
Reference: not given
Direction: higher = stronger binding
Residues (chain): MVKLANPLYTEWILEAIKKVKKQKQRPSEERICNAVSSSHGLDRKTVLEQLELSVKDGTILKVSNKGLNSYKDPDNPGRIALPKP
Oligonucleotide | E-score
CCATCACC | -0.0624
CGTGTTCC | 0.0844
AAAGACCT | -0.00169
CGCAACCC | 0.124
ACGGGTGC | 0.321
AGTATCAA | -0.15

Sample 2
Target: TAR DNA-binding protein 43, full length, His tag (TARDBP, Homo sapiens, UniProt Q13148, residues 1-414)
Technique: RNA Bind-n-Seq
Molecule type: RNA
Medium: in vitro
Concentration: 20 nM
Notes: 6-mer, flanks averaged, single round
With: 150 mM LiCl
Reference: input library
Direction: higher = stronger binding
Oligonucleotide | 6-mer enrichment (R)
ACUCAU | 0.872
UAAGGC | 0.879
CUUGUG | 1.21
GCUGAG | 1

Sample 3
Target: Interferon regulatory factor 7, full length, phosphomimetic (IRF7, Homo sapiens, UniProt Q92985, residues 1-503, S471D/S472D/S475D/S476D/S477D/S483D/S484D/S487D)
Sequence of UniProt Q92985 (whole entry, unmodified, looked up): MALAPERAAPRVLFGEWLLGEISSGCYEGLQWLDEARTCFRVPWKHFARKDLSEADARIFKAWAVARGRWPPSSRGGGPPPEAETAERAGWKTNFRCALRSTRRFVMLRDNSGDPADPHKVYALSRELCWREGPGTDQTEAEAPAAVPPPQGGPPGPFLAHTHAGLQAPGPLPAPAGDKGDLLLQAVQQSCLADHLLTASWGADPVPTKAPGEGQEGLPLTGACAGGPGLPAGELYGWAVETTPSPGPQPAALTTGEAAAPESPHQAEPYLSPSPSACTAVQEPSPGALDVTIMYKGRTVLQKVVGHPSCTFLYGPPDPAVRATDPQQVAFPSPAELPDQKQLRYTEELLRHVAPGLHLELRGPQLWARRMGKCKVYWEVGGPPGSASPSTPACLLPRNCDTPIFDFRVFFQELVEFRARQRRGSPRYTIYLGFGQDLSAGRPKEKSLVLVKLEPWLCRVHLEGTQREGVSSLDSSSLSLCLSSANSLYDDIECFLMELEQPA
Technique: protein-binding microarray
Molecule type: double-stranded DNA, one strand shown
Medium: in vitro
Concentration: 2200 nM top
Notes: 60-bp whole probe
With: salmon DNA 0.4 mg/ml
Reference: random background probes
Direction: higher = stronger binding
Constant ends, left off below: GCCTAGCAC … GTCTTGATTCGCTTGACGCTGCTG
Oligonucleotide | fitted relative affinity [z-score]
GACGATCTCAGTATCGATACGTGCTAG | 0.357
TTAGGTTTCCTTCCCCTTTAGTGCTAG | 2.6
TTAGGACTGGGGTTTCGGTGAGTGCTA | 0.074
GACAGTTTCCTTCTCCTGACGTGCTAG | 3.69
TACGATTTCAGTATCGAGACGTGCTAG | 0.96

Other studies, line by line
Molecule | target | test | system | setting | scale | quantity | value
PhoQ, residues 284 288 289 292 302 303 QWGLFV | PhoP, residues 12 14 15 18 19 LHSVQ (Escherichia coli, UniProt P23836) | Sort-seq, measured: YFP reporter | E. coli | PhoQ-PhoP variant library, with: 10 µM Mg2+ | reference: high Mg2+ state, higher = stronger signaling | fold induction | 1.08

Excerpt of the above (sample 2):
Oligonucleotide | 6-mer enrichment (R)
ACUCAU | 0.872
